{"data": "Results from different studies", "organism": "Pseudomonas aeruginosa", "note": "Compare with care: the assays were run in different laboratories."}
{"Structure (SMILES)": "CCCCc1c([N+](=O)[O-])oc2ccc3ccccc3c12", "assay": "REMA", "quantity": "MIC90", "result": "> 32 µg/mL"}
{"Structure (SMILES)": "O=C(C#Cc1ccc(F)c(F)c1)c1cccc(Cl)c1", "conditions": "10 µM, 24 h", "scale": "relative to: untreated", "quantity": "rhamnolipid production", "result": "31%"}
{"Structure (SMILES)": "N=C(N)NCCC[C@H](NC(=O)[C@H](Cc1c[nH]c2ccccc12)NC(=O)[C@@H](N)CCCNC(=N)N)C(=O)N[C@@H](Cc1c[nH]c2ccccc12)C(=O)N[C@@H](Cc1ccccc1)C(=O)N[C@@H](CCC(N)=O)C(=O)N[C@@H](Cc1ccccc1)C(=O)N[C@@H](CCC(N)=O)C(=O)N[C@@H](Cc1ccccc1)C(=O)N[C@@H](CCCCN)C(N)=O", "quantity": "MBC", "result": "570 µM"}
{"Structure (SMILES)": "CC[C@H](C)[C@H](NC(=O)[C@H](Cc1ccccc1)NC(=O)[C@@H](NC(=O)[C@H](Cc1ccccc1)NC(=O)[C@@H]1CCCN1C(=O)[C@@H](NC(=O)[C@H](C)N)[C@@H](C)CC)[C@@H](C)CC)C(=O)N[C@@H](Cc1c[nH]c2ccccc12)C(=O)N[C@@H](CCCNC(=N)N)C(=O)N[C@@H](CC(C)C)C(=O)N[C@@H](CC(C)C)C(=O)N[C@@H](CCCNC(=N)N)C(=O)N[C@@H](CCCCN)C(=O)NCC(N)=O", "system": "PAO1", "conditions": "18 h, 37 °C", "quantity": "MBC", "result": "> 15 µM"}
{"Structure (SMILES)": "COc1cc(C#CC(=O)c2ccccc2OC)ccc1O", "conditions": "10 µM, 24 h", "scale": "relative to: untreated", "quantity": "pyocyanin production", "result": "47%"}
{"Structure (SMILES)": "Nc1cc(S(=O)(=O)c2ccc3nc(N)sc3c2)ccn1", "assay": "swarming area, modified FAB agar", "system": "PA14-lux", "conditions": "200 µM, 24 h", "scale": "relative to: DMSO vehicle", "quantity": "inhibition", "result": "-31.5%"}
{"Structure (SMILES)": "COc1cc(C#CC(=O)CC(C)C)ccc1O", "conditions": "10 µM, 24 h", "scale": "relative to: untreated", "quantity": "pyocyanin production", "result": "88%"}
{"Structure (SMILES)": "Nc1nc2ccc(Oc3cccnc3)cc2s1", "assay": "absorbance", "system": "PA14-lux", "conditions": "200 µM, 18 h", "scale": "relative to: DMSO", "quantity": "pyocyanin inhibition", "result": "18.3%"}
{"Structure (SMILES)": "COc1cccc(C(=O)C#Cc2ccc(F)c(F)c2)c1", "conditions": "10 µM, 24 h", "scale": "relative to: untreated", "quantity": "exoprotease production", "result": "88%"}
{"Structure (SMILES)": "COc1ccc2c(ccc3oc([N+](=O)[O-])c(C)c32)c1", "assay": "REMA", "quantity": "MIC90", "result": "> 32 µg/mL"}
{"Structure (SMILES)": "CC[C@H](C)[C@H](NC(=O)[C@H](Cc1ccccc1)NC(=O)[C@@H](NC(=O)[C@H](CO)NC(=O)[C@@H](N)CCCNC(=N)N)[C@@H](C)CC)C(=O)N[C@@H](CCCCN)C(=O)N[C@@H](Cc1ccc(O)cc1)C(=O)N[C@@H](CCCCN)C(=O)N[C@@H](CO)C(=O)N[C@@H](CCCCN)C(=O)N1CCC[C@H]1C(=O)N[C@@H](Cc1ccccc1)C(=O)N[C@@H](CS)C(=O)N[C@@H](CCC(=O)O)C(=O)N[C@@H](CCCCN)C(=O)N[C@@H](CC(C)C)C(=O)N[C@@H](CC(C)C)C(=O)N[C@@H](CO)C(=O)N[C@@H](Cc1c[nH]c2ccccc12)C(=O)N[C@H](C(=O)N[C@@H](CCCCN)C(=O)N[C@@H](CO)C(=O)O)C(C)C", "quantity": "MBC", "result": "8 µg/mL"}
{"Structure (SMILES)": "CC1(C)S[C@@H]2[C@H](NC(=O)[C@H](N)c3ccccc3)C(=O)N2[C@H]1C(=O)O", "system": "fptA mutant", "quantity": "MIC", "result": "> 200 µg/mL"}
{"Structure (SMILES)": "O=C(C#Cc1ccc(F)c(F)c1)c1ccccc1Cl", "conditions": "10 µM, 24 h", "scale": "relative to: untreated", "quantity": "pyocyanin production", "result": "44%"}
{"Structure (SMILES)": "COc1ccc2ccc3oc([N+](=O)[O-])cc3c2c1Br", "assay": "REMA", "quantity": "MIC90", "result": "> 32 µg/mL"}
{"Structure (SMILES)": "CC1(C)SC2C(NC(=O)C(NC(=O)C3=C(O)C(Cc4ccccc4)NC3=O)c3ccccc3)C(=O)N2C1C(=O)O (stereo not drawn)", "system": "pvdA mutant", "quantity": "MIC", "result": "12.5 µg/mL"}
{"Structure (SMILES)": "CC(C)C[C@H](NC(=O)[C@H](CCN)NC(=O)[C@H](CCN)NC(=O)[C@@H](Cc1ccccc1)NC(=O)[C@H](CC(C)C)NC(=O)[C@H](CCN)NC(=O)[C@H](CCN)NC(=O)[C@@H](CCN)NC(=O)[C@@H](N)CSCCOC(=O)c1ccc(C(C)(C)C)cc1)C(N)=O", "system": "PAO1", "conditions": "24 h, 37 °C", "quantity": "MBC", "result": "16 µM"}
{"Structure (SMILES)": "Nc1nc2ccc(Oc3ccc4nc(N)sc4c3)cc2s1", "assay": "LC-MS", "conditions": "concentration not given, 24 h", "quantity": "pyocyanin-related PCN production", "result": "decreased"}
{"Structure (SMILES)": "Nc1nc2ccc(Oc3ccc(=O)[nH]c3)cc2s1", "assay": "swarming area", "system": "PA14-lux", "conditions": "200 µM, 24 h", "scale": "relative to: DMSO", "quantity": "swarming inhibition", "result": "26.3%"}
{"Structure (SMILES)": "CSCC[C@H](NC(=O)[C@H](CC(C)C)NC(=O)[C@@H](NC(=O)[C@H](Cc1ccccc1)NC(=O)[C@H](CCCCN)NC(=O)[C@H](CCCNC(=N)N)NC(=O)[C@@H](NC(=O)[C@H](Cc1ccc(O)cc1)NC(=O)[C@H](CCCNC(=N)N)NC(=O)[C@@H](N)CCCNC(=N)N)C(C)C)C(C)C)C(=O)N[C@@H](CCCNC(=N)N)C(=O)O", "quantity": "MBC", "result": "64 µg/mL"}
{"Structure (SMILES)": "CNC(=O)COc1ccc2nc(N)sc2c1", "assay": "pyocyanin production", "system": "PA14-lux", "conditions": "200 µM, 18 h", "scale": "relative to: DMSO vehicle", "quantity": "inhibition", "result": "13.9%"}
{"Structure (SMILES)": "CC(C)(C)OCC1NC(=O)C(C(=O)NC(C(=O)NC2C(=O)N3C2SC(C)(C)C3C(=O)O)c2ccccc2)=C1O (stereo not drawn)", "system": "fpvA mutant", "quantity": "MIC", "result": "25 µg/mL"}
{"Structure (SMILES)": "COc1cc2ccc3oc([N+](=O)[O-])cc3c2cc1OC", "assay": "REMA", "quantity": "MIC90", "result": "> 32 µg/mL"}
{"Structure (SMILES)": "CC[C@H](C)[C@H](NC(=O)[C@H](C)NC(=O)[C@H](CCCCN)NC(=O)[C@H](CC(C)C)NC(=O)[C@H](C)NC(=O)[C@@H](NC(=O)[C@H](Cc1c[nH]cn1)NC(=O)[C@H](CC(C)C)NC(=O)[C@@H](NC(=O)[C@@H](NC(=O)[C@H](CCCCN)NC(=O)[C@H](C)NC(=O)[C@H](C)NC(=O)[C@H](CO)NC(=O)[C@H](CCCCN)NC(=O)[C@H](Cc1ccccc1)NC(=O)[C@@H](NC(=O)[C@H](CCCCN)NC(=O)[C@H](CC(C)C)NC(=O)[C@H](Cc1ccccc1)NC(=O)[C@H](CO)NC(=O)[C@H](CCCCN)NC(=O)[C@H](Cc1c[nH]c2ccccc12)NC(=O)[C@H](CCCCN)NC(C)=O)[C@@H](C)O)[C@@H](C)O)C(C)C)[C@@H](C)O)C(=O)N[C@@H](CO)C(=O)N[C@@H](CO)C(N)=O", "system": "IPM-S", "conditions": "43 strains", "quantity": "MIC geometric mean", "result": "7.03 µg/mL"}
{"Structure (SMILES)": "NC(=O)COc1ccc2nc(N)sc2c1", "assay": "swarming area", "system": "PA14-lux", "conditions": "200 µM, 24 h", "scale": "relative to: DMSO", "quantity": "swarming inhibition", "result": "4.27%"}
{"Structure (SMILES)": "CC[C@H](C)[C@H](NC(=O)[C@H](Cc1ccc(O)cc1)NC(=O)[C@@H](NC(=O)[C@H](Cc1ccc(O)cc1)NC(=O)[C@@H]1CCCN1C(=O)[C@@H](NC(=O)[C@H](C)N)[C@@H](C)CC)[C@@H](C)CC)C(=O)N[C@@H](Cc1c[nH]c2ccccc12)C(=O)N[C@@H](CCCNC(=N)N)C(=O)N[C@@H](CC(C)C)C(=O)N[C@@H](CC(C)C)C(=O)N[C@@H](CCCNC(=N)N)C(=O)N[C@@H](CCCCN)C(=O)NCC(=O)O", "system": "PAO1", "conditions": "18 h, 37 °C", "quantity": "MBC", "result": "> 15 µM"}
{"Structure (SMILES)": "Nc1nc2ccc([S+]([O-])c3ccncc3)cc2s1 (stereo not drawn)", "assay": "pyocyanin production", "system": "PA14-lux", "conditions": "200 µM, 18 h", "scale": "relative to: DMSO vehicle", "quantity": "inhibition", "result": "18.1%"}
{"Structure (SMILES)": "CC(C)C[C@H](NC(=O)[C@H](CCN)NC(=O)[C@H](CCN)NC(=O)[C@@H](Cc1ccccc1)NC(=O)[C@H](CC(C)C)NC(=O)[C@H](CCN)NC(=O)[C@H](CCN)NC(=O)[C@@H](CCN)NC(=O)[C@@H](N)CSCCOC(=O)c1ccccc1)C(N)=O", "system": "PAO1", "conditions": "24 h, 37 °C", "quantity": "MBC", "result": "128 µM"}
{"Structure (SMILES)": "COC(=O)c1ccc2c(ccc3oc([N+](=O)[O-])cc32)c1", "assay": "REMA", "quantity": "MIC90", "result": "> 32 µg/mL"}
{"Structure (SMILES)": "O=C(O)CN(CC(=O)O)CC(=O)O", "system": "IMP-37 and IMP-13 producer", "conditions": "32 µg/mL, added: meropenem", "quantity": "meropenem MIC", "result": "32 µg/mL"}
{"Structure (SMILES)": "CC(C)CC1NC(=O)C(C(=O)NC(C(=O)NC2C(=O)N3C2SC(C)(C)C3C(=O)O)c2ccccc2)=C1O (stereo not drawn)", "system": "pvcA mutant", "quantity": "MIC", "result": "25 µg/mL"}
{"Structure (SMILES)": "Nc1nc2ccc(CN3CCNC3=O)cc2s1", "assay": "pyocyanin production", "system": "PA14-lux", "conditions": "200 µM, 18 h", "scale": "relative to: DMSO vehicle", "quantity": "inhibition", "result": "14%"}
{"Structure (SMILES)": "Cn1c(=O)ccc2ccc(F)c(CCNC[C@H]3CN(c4cnc5c(n4)NC(=O)CO5)C(=O)O3)c21", "quantity": "MIC90", "result": "1 µg/mL"}
{"Structure (SMILES)": "N#Cc1ccc2c(ccc3oc([N+](=O)[O-])cc32)c1", "assay": "REMA", "quantity": "MIC90", "result": "> 32 µg/mL"}
{"Structure (SMILES)": "COc1cccc(C(=O)C#Cc2ccc(O)c(OC)c2)c1", "conditions": "10 µM, 24 h", "scale": "relative to: untreated", "quantity": "rhamnolipid production", "result": "30%"}
{"Structure (SMILES)": "CC1(C)SC2C(NC(=O)C(NC(=O)C3=C(O)C4CCCN4C3=O)c3ccccc3)C(=O)N2C1C(=O)O (stereo not drawn)", "system": "fptA mutant", "quantity": "MIC", "result": "25 µg/mL"}
{"Structure (SMILES)": "O=C(O)c1cccc(C(=O)O)n1", "system": "IMP-37 and IMP-13 producer", "conditions": "32 µg/mL, added: meropenem", "quantity": "meropenem MIC", "result": "16 µg/mL"}
{"Structure (SMILES)": "COc1ccccc1C(=O)C#Cc1ccc(F)c(F)c1", "conditions": "10 µM, 24 h", "scale": "relative to: untreated", "quantity": "pyocyanin production", "result": "63%"}
{"Structure (SMILES)": "Nc1ccc(S(=O)(=O)c2ccc3nc(N)sc3c2)cn1", "assay": "swarming area, modified FAB agar", "system": "PA14-lux", "conditions": "200 µM, 24 h", "scale": "relative to: DMSO vehicle", "quantity": "inhibition", "result": "25.2%"}
{"Structure (SMILES)": "O=[N+]([O-])c1cc2c(ccc3cc(Br)ccc32)o1", "assay": "REMA", "quantity": "MIC90", "result": "> 32 µg/mL"}
{"note": "Some of these lines once more:"}
{"Structure (SMILES)": "NC(=O)COc1ccc2nc(N)sc2c1", "assay": "swarming area", "system": "PA14-lux", "conditions": "200 µM, 24 h", "scale": "relative to: DMSO", "quantity": "swarming inhibition", "result": "4.27%"}
{"Structure (SMILES)": "Nc1nc2ccc(CN3CCNC3=O)cc2s1", "assay": "pyocyanin production", "system": "PA14-lux", "conditions": "200 µM, 18 h", "scale": "relative to: DMSO vehicle", "quantity": "inhibition", "result": "14%"}
{"Structure (SMILES)": "CSCC[C@H](NC(=O)[C@H](CC(C)C)NC(=O)[C@@H](NC(=O)[C@H](Cc1ccccc1)NC(=O)[C@H](CCCCN)NC(=O)[C@H](CCCNC(=N)N)NC(=O)[C@@H](NC(=O)[C@H](Cc1ccc(O)cc1)NC(=O)[C@H](CCCNC(=N)N)NC(=O)[C@@H](N)CCCNC(=N)N)C(C)C)C(C)C)C(=O)N[C@@H](CCCNC(=N)N)C(=O)O", "quantity": "MBC", "result": "64 µg/mL"}
{"Structure (SMILES)": "COC(=O)c1ccc2c(ccc3oc([N+](=O)[O-])cc32)c1", "assay": "REMA", "quantity": "MIC90", "result": "> 32 µg/mL"}
